Experimental data pooled from the literature.
Numbered parts are unrelated; each lists some results of a single study.

Set 1 — method: universal PBM; molecule type: double-stranded DNA, one strand shown; sample: in vitro; tested at: 600 nM; direction: higher = stronger binding; measurement: E-score
Target: Sal-like protein 4, full length isoform A (SALL4, Homo sapiens, UniProt Q9UJQ4, residues 1-1053)
UniProt Q9UJQ4, sequence (whole entry, looked up): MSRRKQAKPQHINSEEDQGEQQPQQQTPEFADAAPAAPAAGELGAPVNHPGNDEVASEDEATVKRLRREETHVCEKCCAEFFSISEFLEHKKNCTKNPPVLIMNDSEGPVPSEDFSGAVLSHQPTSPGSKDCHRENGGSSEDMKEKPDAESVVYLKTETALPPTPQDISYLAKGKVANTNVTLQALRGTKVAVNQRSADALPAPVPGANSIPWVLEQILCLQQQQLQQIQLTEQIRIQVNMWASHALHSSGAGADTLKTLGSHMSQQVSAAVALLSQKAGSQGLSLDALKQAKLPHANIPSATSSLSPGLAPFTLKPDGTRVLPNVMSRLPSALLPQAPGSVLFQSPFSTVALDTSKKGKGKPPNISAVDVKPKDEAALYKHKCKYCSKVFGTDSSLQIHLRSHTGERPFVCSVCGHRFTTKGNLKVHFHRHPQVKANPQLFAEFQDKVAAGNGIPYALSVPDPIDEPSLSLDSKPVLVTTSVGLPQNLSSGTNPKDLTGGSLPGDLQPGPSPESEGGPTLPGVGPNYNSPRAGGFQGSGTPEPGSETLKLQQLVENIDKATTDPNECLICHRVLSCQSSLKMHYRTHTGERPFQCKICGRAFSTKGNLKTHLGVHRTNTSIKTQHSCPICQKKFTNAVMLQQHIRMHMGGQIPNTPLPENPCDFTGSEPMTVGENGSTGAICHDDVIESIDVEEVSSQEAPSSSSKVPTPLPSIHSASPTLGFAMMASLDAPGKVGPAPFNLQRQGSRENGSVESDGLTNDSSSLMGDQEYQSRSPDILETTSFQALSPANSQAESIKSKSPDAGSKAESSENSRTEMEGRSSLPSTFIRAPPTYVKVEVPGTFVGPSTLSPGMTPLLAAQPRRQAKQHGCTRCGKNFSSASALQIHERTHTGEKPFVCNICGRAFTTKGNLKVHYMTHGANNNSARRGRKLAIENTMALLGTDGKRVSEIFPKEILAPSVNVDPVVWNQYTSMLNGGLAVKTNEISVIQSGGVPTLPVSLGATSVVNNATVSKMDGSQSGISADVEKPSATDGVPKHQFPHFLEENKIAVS
Setting: 8-mer, flanks averaged, mean of replicates
CGCAACCC: -0.176
CTGATCAG: -0.19
GCGACCCA: -0.33
AAGGATAT: 0.218
TATCAAAA: 0.323

Set 2 — method: RNA Bind-n-Seq; molecule type: RNA; sample: in vitro; tested at: 20 nM; setting: 6-mer, flanks averaged, single round; with: 150 mM LiCl; baseline: input library; direction: higher = stronger binding; measurement: 6-mer enrichment (R)
Target: TAR DNA-binding protein 43, full length, His tag (TARDBP, Homo sapiens, UniProt Q13148, residues 1-414)
GAGCGA: 0.986
UCUUGG: 0.995
GAGUGG: 1.52
GAGGGC: 1.11
GCGAAU: 0.941

Set 3 — method: protein-binding microarray; molecule type: double-stranded DNA, one strand shown; sample: in vitro; tested at: 0.8 µM; setting: whole 60-bp probe, no competitor; direction: higher = stronger binding; measurement: fluorescence intensity; shared flanks, not repeated: … GTCTTGATTCGCTTGACGCTGCTG
Target: Centromere-binding protein 1, full length, N-terminal tag (CBF1, Saccharomyces cerevisiae, UniProt P17106, residues 1-351)
UniProt P17106, sequence (whole entry, looked up): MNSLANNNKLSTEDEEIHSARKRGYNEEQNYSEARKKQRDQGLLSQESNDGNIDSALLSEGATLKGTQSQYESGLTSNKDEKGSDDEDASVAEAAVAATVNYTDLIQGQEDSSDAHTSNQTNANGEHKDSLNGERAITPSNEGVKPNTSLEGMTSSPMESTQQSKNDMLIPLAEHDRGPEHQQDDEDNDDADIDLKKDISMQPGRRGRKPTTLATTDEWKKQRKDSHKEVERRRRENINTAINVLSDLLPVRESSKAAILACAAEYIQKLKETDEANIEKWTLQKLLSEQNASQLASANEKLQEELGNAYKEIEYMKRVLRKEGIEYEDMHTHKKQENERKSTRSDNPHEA
GAAGAATAAATAGACACTCACATGTATATTAATTAG: 1240 a.u.
GAAAAATAGAAGCGACACGTTACATATTAAAAGTAG: 801 a.u.
CTAAGGGATTAGAATCACGTAAGACTCTTGATCTTC: 510 a.u.
GAAATATCACAACGTCACGTTGAATAAGGCCATTAG: 1190 a.u.
GAACGACCGTACAAGCACGTACTGTGTAATTTTTAG: 537 a.u.

Single results of other studies
PhoQ, residues 284 288 289 292 302 303 SVTLVV — fold induction (PhoP, residues 12 14 15 18 19 STWGI (Escherichia coli, UniProt P23836); Sort-seq, measured: YFP reporter; E. coli; PhoQ-PhoP variant library, with: 10 µM Mg2+; baseline: high Mg2+ state, higher = stronger signaling): 4.65

Excerpt of the above (set 1):
CTGATCAG: -0.19
